{"data": "Published values from different studies", "note": "Numbered parts are unrelated; each lists some results of a single study.", "UniProt P10721, sequence (whole entry, unmodified, looked up)": "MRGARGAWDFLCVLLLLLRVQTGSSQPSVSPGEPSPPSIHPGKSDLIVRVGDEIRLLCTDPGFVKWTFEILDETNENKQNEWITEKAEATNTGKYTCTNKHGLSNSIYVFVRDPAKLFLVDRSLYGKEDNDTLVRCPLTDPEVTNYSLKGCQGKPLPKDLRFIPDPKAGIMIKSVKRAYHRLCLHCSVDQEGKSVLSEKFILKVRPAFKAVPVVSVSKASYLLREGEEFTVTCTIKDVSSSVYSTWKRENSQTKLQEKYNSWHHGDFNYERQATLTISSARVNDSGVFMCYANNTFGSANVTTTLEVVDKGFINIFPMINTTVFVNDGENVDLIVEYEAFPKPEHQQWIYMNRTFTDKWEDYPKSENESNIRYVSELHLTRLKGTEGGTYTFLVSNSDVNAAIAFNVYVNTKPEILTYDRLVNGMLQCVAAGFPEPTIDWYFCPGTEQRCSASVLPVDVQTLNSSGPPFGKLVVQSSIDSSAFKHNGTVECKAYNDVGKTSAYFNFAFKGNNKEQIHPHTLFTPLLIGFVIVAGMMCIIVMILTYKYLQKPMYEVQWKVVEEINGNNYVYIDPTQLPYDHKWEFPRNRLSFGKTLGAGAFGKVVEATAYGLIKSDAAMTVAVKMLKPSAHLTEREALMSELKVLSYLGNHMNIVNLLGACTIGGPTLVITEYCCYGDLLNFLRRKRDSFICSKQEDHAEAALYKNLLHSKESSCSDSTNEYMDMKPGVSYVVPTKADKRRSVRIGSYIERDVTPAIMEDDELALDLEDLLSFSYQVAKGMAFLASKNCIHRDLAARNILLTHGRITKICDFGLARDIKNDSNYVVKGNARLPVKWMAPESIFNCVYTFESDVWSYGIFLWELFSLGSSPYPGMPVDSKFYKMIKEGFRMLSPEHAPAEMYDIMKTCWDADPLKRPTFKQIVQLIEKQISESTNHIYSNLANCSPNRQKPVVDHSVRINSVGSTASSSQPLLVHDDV", "UniProt O43353, sequence (whole entry, looked up)": "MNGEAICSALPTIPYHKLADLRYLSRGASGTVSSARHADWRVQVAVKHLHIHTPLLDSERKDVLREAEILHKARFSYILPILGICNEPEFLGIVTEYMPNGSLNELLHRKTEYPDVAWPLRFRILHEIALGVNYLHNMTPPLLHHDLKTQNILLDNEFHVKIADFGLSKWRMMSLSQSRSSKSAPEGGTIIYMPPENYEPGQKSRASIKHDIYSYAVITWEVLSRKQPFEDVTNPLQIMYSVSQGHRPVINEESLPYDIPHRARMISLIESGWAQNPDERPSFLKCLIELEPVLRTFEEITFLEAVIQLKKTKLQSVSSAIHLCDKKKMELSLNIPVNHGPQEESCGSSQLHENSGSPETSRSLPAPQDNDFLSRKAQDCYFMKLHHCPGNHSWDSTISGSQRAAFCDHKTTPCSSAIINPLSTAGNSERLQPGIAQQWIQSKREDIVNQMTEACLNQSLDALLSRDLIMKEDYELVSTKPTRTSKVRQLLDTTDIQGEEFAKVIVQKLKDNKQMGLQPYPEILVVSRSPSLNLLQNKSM", "UniProt P78356, sequence (whole entry, looked up)": "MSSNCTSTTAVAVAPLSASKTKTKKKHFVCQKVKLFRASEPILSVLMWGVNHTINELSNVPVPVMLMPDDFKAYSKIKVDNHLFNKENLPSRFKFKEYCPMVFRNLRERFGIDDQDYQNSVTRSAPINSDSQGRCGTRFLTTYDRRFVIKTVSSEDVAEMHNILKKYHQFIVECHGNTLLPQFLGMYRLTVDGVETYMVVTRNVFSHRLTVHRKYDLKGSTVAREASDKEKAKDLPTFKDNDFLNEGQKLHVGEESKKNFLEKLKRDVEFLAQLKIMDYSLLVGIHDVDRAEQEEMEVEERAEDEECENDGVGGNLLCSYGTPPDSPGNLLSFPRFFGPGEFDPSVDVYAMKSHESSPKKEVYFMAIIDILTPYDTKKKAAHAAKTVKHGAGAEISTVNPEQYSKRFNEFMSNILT", "UniProt P07949, sequence (whole entry, unmodified, looked up)": "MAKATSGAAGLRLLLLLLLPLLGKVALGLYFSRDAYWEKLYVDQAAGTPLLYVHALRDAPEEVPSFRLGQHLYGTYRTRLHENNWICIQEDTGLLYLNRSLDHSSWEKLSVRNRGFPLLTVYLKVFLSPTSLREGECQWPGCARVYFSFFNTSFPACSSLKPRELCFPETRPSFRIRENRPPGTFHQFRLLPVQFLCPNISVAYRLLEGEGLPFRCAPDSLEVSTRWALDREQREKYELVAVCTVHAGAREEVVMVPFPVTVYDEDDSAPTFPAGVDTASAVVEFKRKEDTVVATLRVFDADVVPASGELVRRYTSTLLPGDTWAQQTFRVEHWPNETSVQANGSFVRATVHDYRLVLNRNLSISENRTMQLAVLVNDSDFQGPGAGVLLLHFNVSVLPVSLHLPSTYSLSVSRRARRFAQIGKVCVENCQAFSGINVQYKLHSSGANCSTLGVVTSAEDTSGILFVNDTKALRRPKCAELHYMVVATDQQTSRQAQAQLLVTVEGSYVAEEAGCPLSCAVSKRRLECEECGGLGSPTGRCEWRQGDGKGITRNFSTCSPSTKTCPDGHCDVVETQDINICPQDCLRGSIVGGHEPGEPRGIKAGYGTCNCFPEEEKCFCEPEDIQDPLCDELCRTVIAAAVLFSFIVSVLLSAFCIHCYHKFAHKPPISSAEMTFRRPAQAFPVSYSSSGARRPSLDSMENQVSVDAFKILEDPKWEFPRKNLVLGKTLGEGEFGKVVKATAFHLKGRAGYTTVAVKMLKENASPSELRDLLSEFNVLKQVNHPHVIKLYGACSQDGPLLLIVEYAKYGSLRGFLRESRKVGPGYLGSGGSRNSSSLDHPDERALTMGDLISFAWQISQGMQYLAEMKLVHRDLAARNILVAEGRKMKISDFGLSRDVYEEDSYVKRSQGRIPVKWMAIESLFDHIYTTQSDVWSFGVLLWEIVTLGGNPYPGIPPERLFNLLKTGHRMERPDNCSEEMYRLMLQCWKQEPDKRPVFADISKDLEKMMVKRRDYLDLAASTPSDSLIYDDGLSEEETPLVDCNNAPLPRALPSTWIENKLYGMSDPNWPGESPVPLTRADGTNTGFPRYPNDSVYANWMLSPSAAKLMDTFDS"}
{"data": "Series 1", "cell line": "A-375", "concentration": "100 µM", "time": "36 h"}
{"SMILES": "CN1CCC[C@@H]1Cc1c[nH]c2ccc(CCS(=O)(=O)c3ccccc3)cc12", "viability [%]": 95.5}
{"SMILES": "CC1CC(OC(=O)C(O)c2ccccc2)CC(C)(C)C1 (stereo not shown)", "viability [%]": -1.35}
{"SMILES": "COc1cc(N)c(Cl)cc1C(=O)N[C@@H]1CCN(CCCOc2ccc(F)cc2)C[C@@H]1OC (racemic)", "viability [%]": 65.1}
{"SMILES": "NC(=O)c1ccccc1O", "viability [%]": 106}
{"SMILES": "O=S(=O)(O)c1cc(O)ccc1O", "viability [%]": 116}
{"SMILES": "O=C(NC1CCN(CCCCC2(C(=O)NCC(F)(F)F)c3ccccc3-c3ccccc32)CC1)c1ccccc1-c1ccc(C(F)(F)F)cc1", "viability [%]": 3.6}
{"SMILES": "CC1CCc2c(N3CCC(O)CC3)c(F)cc3c(=O)c(C(=O)O)cn1c23 (stereo not shown)", "viability [%]": 87.7}
{"SMILES": "COc1ccc2cc3[n+](cc2c1OC)CCc1cc2c(cc1-3)OCO2", "viability [%]": 46.6}
{"SMILES": "Cc1cccc(N(C)C(=S)Oc2ccc3ccccc3c2)c1", "viability [%]": 98.9}
{"SMILES": "COc1cc(CNC(=O)CCCC/C=C/C(C)C)ccc1O", "viability [%]": 12.9}
{"SMILES": "CNC(=O)c1cc(Oc2ccc(NC(=O)Nc3ccc(Cl)c(C(F)(F)F)c3)c(F)c2)ccn1", "viability [%]": 28.4}
{"SMILES": "CC[C@H](C)[C@H](N)C(=O)O", "viability [%]": 114}
{"data": "Series 2", "SMILES": "O=C(O)[C@@H]1[C@@H](Cn2nnc3ccccc3c2=O)CC[C@H]1C(=O)c1ccc(OCCC2CCOCC2)cc1", "read-out": "cell-free assay", "method": "competition with immobilised ligand", "concentration": "1 µM"}
{"target": "Tyrosine-protein kinase ABL1, phosphorylated (ABL1, Homo sapiens, UniProt P00519, F317L)", "remaining binding [%]": 92}
{"target": "Mast/stem cell growth factor receptor Kit, autoinhibited (KIT, Homo sapiens, UniProt P10721)", "remaining binding [%]": 89}
{"target": "MAP/microtubule affinity-regulating kinase 3 (MARK3, Homo sapiens, UniProt P27448)", "remaining binding [%]": 100}
{"target": "Receptor-interacting serine/threonine-protein kinase 2 (RIPK2, Homo sapiens, UniProt O43353)", "remaining binding [%]": 97}
{"target": "Vascular endothelial growth factor receptor 2 (KDR, Homo sapiens, UniProt P35968)", "remaining binding [%]": 78}
{"target": "Mast/stem cell growth factor receptor Kit (KIT, Homo sapiens, UniProt P10721, L576P)", "remaining binding [%]": 100}
{"target": "Proto-oncogene tyrosine-protein kinase receptor Ret (RET, Homo sapiens, UniProt P07949, V804L)", "remaining binding [%]": 94}
{"target": "Tyrosine-protein kinase Srms (SRMS, Homo sapiens, UniProt Q9H3Y6)", "remaining binding [%]": 100}
{"target": "Tyrosine-protein kinase ABL1, non-phosphorylated (ABL1, Homo sapiens, UniProt P00519, Q252H)", "remaining binding [%]": 96}
{"target": "Serine/threonine-protein kinase 33 (STK33, Homo sapiens, UniProt Q9BYT3)", "remaining binding [%]": 69}
{"target": "Microtubule-associated serine/threonine-protein kinase 1 (MAST1, Homo sapiens, UniProt Q9Y2H9)", "remaining binding [%]": 100}
{"target": "Serine/threonine-protein kinase pim-1 (PIM1, Homo sapiens, UniProt P11309)", "remaining binding [%]": 100}
{"target": "Phosphatidylinositol 5-phosphate 4-kinase type-2 beta (PIP4K2B, Homo sapiens, UniProt P78356)", "remaining binding [%]": 81}
{"target": "Mitogen-activated protein kinase kinase kinase 1 (MAP3K1, Homo sapiens, UniProt Q13233)", "remaining binding [%]": 100}
{"target": "Serine/threonine-protein kinase tousled-like 1 (TLK1, Homo sapiens, UniProt Q9UKI8)", "remaining binding [%]": 100}
{"target": "Epidermal growth factor receptor (EGFR, Homo sapiens, UniProt P00533)", "remaining binding [%]": 90}
{"data": "Series 3", "target": "Serine/threonine-protein kinase PAK 6 (PAK6, Homo sapiens, UniProt Q9NQU5)", "read-out": "enzyme activity", "mode": "inhibitor", "concentration": "0.5 µM", "reference": "control", "UniProt Q9NQU5, sequence (whole entry, looked up)": "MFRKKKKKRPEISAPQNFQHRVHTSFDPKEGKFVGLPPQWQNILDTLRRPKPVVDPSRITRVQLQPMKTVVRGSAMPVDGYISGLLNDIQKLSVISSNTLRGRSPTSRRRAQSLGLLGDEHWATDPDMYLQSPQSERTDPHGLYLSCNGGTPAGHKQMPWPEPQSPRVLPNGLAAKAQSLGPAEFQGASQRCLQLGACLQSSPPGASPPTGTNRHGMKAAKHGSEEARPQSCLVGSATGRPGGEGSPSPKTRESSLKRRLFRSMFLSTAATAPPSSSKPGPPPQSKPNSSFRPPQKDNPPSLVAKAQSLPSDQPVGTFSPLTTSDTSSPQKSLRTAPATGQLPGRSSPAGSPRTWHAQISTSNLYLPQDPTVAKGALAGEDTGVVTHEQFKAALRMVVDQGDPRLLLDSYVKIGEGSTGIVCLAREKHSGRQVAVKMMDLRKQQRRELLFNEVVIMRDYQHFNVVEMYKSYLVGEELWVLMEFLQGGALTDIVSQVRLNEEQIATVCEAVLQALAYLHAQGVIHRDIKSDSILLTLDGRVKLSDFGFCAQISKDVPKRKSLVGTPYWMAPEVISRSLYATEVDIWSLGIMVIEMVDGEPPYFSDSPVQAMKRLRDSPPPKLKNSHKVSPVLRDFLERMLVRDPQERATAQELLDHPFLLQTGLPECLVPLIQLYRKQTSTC"}
{"Compound": "COc1cc2c(cc1OC)-c1[nH]nc(Nc3cccc(F)c3)c1C2", "remaining activity": "84.8%"}
{"Compound": "C[C@@H]1CCN(C(=O)CC#N)C[C@@H]1N(C)c1ncnc2[nH]ccc12", "remaining activity": "102%"}
{"Compound": "c1ccc(-c2cnc(Nc3ccc(OCCN4CCCC4)cc3)s2)cc1", "remaining activity": "101%"}
{"Compound": "O=c1cc(-c2cccc3c2Sc2ccccc2S3)oc(N2CCOCC2)c1", "remaining activity": "95.6%"}
{"Compound": "CCOc1nc(NC(=O)Cc2cc(OC)ccc2OC)cc(N)c1C#N", "remaining activity": "102%"}
{"Compound": "N#Cc1c(NC(=O)c2cccc3ccccc23)sc2c1CCCC2", "remaining activity": "101%"}
{"Compound": "O=C1c2ccccc2-c2n[nH]c3cccc1c23", "remaining activity": "94.5%"}
{"Compound": "O=C(Nc1cccc(Nc2nccc(Nc3cccc(C(F)(F)F)c3)n2)c1)C1CC1", "remaining activity": "100%"}
{"Compound": "Cn1nc2c3c(cccc31)C(=O)c1ccccc1-2", "remaining activity": "98.6%"}
{"Compound": "Cc1nc2cc3nc(-c4cccs4)cnc3cc2n1C", "remaining activity": "96.6%"}
{"Compound": "CCN(CC)CCNC(=O)c1c(C)[nH]c(/C=C2\\C(=O)Nc3ccc(Cl)cc32)c1C", "remaining activity": "101%"}
{"data": "Mixed results"}
{"Structure (SMILES)": "CCC[C@@H]1NC(=O)CSC[C@@H](C(=O)OCC)N(C)C(=O)[C@H](CC(C)C)NC(=O)[C@@H](C)N(C)C(=O)[C@H](CC(C)C)NC(=O)[C@H](C)N(C)C(=O)[C@H]2CCCN2C(=O)[C@H](CC(C)C)NC(=O)CN(C)C1=O", "sample": "hydrocarbon/water", "endpoint": "logD", "result": 0.958}
